Published values of several laboratories.
Every numbered part comes from another study and shows a few of its results, in no order.

Set 1 — method: RNA Bind-n-Seq; molecule type: RNA; sample: in vitro; concentration: 365 nM; baseline: no-protein control; direction: higher = stronger binding
Target: RNA binding protein fox-1 homolog 2, RRM domain, GST-SBP tag (RBFOX2, Homo sapiens, UniProt O43251-10, residues 100-194)
Notes: natural RNA segment, single round, ends assumed
Shared flanks, not repeated: GGGAGUUCUACAGUCCGACGAUC … UGGAAUUCUCGGGUGCCAA
Target sequence (chain): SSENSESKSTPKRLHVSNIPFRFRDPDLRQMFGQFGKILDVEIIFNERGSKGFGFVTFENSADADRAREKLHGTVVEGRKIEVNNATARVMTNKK
`GUUGUCUGUAAAUUGGAUGAAAAGAGCUCUAAUGCCUUUCAGGCUCUUAGAAGCCAUAGAUUUGGACAAGCCCAGCAAGAUGGGUGUCCUUCCAGGCCUCUUCCCCUUUC`: “RBNS enrichment (R)” 0.964.
For `UUGUGGGGAGAGGGAAGGAGGAAGUCAGUUAUUUGAGUAAGCCUCUAGUUGACUUUUCUCUUAGCCUGAAUGUGGACGUUGAAACAUAUCACUUCAGGGCUUGGAAAAGU`, “RBNS enrichment (R)” read 1.08.
`AUCCUGACAUUGUAUGCUACGAGAACUCUUCUGAUGAUGGAAUUUCGAUUAAAGUGCACUGAAAGAUGCUUCUGUGUUUGUCUUCCUCAUGUUCUGGGGCUGAAGGUGGG` — result for “RBNS enrichment (R)”: 1.14.
Under “RBNS enrichment (R)”, `GUGUUCUGUUUCAAUGUAUAAGGACUAUAGUGAUUUAAACUCAUCAAUGUGCCUUUGCAUAAAGUUCAUUAAAUAAAUAUUGAUGUGGUAUAAAUGCCCAUCAGAUAUGC` is recorded as 0.465.
Under “RBNS enrichment (R)”, `ACAAUCUGAACUAUGUUUCUGAUGUGUGCACACUUUCCAUUUUAGUGCUAUUUUACAUCUGUUCGUUAAAGUAUUAAGUAAUUUAAUGACCCCAAGAGUACCAGAUUCUG` is recorded as 0.445.
Under “RBNS enrichment (R)”, `UCCCAAAGUGCUGCCAUUACAGGCGUGAGCCACUAGGCCUGACCUCCCCUUCCCCUUUCCUGCCCCAAGGCAGAUCCACAUCACCGAAGCUCCCUAGAGGGGCAAAAGAU` is recorded as 0.318.
`GACCCUCUCCCUAAGGUUGGAUCAGGGAACUGGGUAAGACCUGCAGAAGGUUUCUCUGAGUCACUCACCAGGCCCUACAAGUCCGCUUUCUUGCAGGCUGCCUCUUUUAU`: “RBNS enrichment (R)” 0.406.
For `CUGACCCAAGACAAAAUGCACAAGUCAGGAAGCACUUCCUUGUGCCCGAGCUGUGGGCCACCCUGGGGGCGCUGUCGCUGCUGUUUCCCUGCCCGAGAAUCAGCUUGAAU`, “RBNS enrichment (R)” read 1.02.
For `GUGCCUGGAAGGCUUCCAGCCAAAACCAGUAAUUCCCUGCUUUCUUGUAUACAGAGUGUUCACUGCUAUUUCAGAUCUUGGUGAGUGUUCCAGUAACCAAGCCAGUCCCC`, “RBNS enrichment (R)” read 0.231.
`UCAGAAAGAUGUCCAUAAUAAAUAUUAAAAACAAUGGUAUUUUUUAAAAAACUGCCUUAGGGUUUUAAAACCUUCCCUACAGUUAUAACCACGUGUAAUUUUGUGGAAAU` — result for “RBNS enrichment (R)”: 0.476.
`AUUGUGUUGGGUGUGGGUGGUCUCCAAGGCCACGCUGCUCUCUGAAUUGAUUUUUUGAGUUUUGUUUGUAAGAUGAUCACAGUCAUGUUACACUGAUCUAAAGGACAUAU`: “RBNS enrichment (R)” 0.251.
Under “RBNS enrichment (R)”, `UUUGGCCUGUUGAAUUUGCUGAAGAACAUCACCUAAAGUCUGCACACGAGCCCAUUUUUACCAAGAUUUGAUCAGUGUCUUUACUGAGCUGGAAGCCUCUGAAAGUUAUU` is recorded as 0.447.

Set 2 — method: RNA Bind-n-Seq; molecule type: RNA; sample: in vitro; concentration: 200 nM; notes: whole 134-nt RNA, ends assumed; added: 150 mM LiCl; baseline: input library; direction: higher = stronger binding; library: 7-deaza-guanosine replaces G
Target: Fragile X messenger ribonucleoprotein 1, C-terminal low-complexity region (Fmr1, Mus musculus, UniProt P35922)
Shared flanks, not repeated: GGGAGUUCUACAGUCCGACGAUC … UGGAAUUCUCGGGUGUCAAGG
`UAACUUUAGAGGGGGAUCUGAUGGAUAUGGCAGUGGACGUGGAUUUGGGGAUGGCUAUAAUGGGUAUGGAGGAGGACCUGGAGGUGGCAA` has a log2 enrichment of 0.521.
For `CAAGUCCUGUGCUACACAUCGUAUGUACCGAAUCGGUUUGGGGUUUGGGGUUUGGGAAAGUAUUAUGUUACGCCGUUCGGAUCUGCACUU`, the log2 enrichment was -1.98.
For `UGGGAGGUGGAUUUUGUUUAUUUUUUUAGCUCAUUUCCAGGGGUGGGAAUUUUUUUUUAAUAUGUGUCAUGAAUAAAGUUGAUUUUGAAA`, the log2 enrichment was 0.0747.
The log2 enrichment of `UAACUUUAGAGGAGGAUCUGAUGGAUAUGGCUGUGGACGUGGAUUUGGGGAUGGCUAUAAUGGGUAUGGAGGAGGACCUGGAGGUGGCAA` is reported as 0.837.
`UGGGAGGUGGAUUUUGUUUAUUUUGUUAGCUCAUUUCCAGGGGUGGGAAUUUUUUUUUAAUAUGUGUCAUGAAUAAAGUUGUUUUUGAAA` has a log2 enrichment of -0.0817.
With `UUGCUGUCACCCGCUGCCUGUCUGCAGGAUCCCGGAUUCCGUAUCAGGGGACCGAAAUUAGUCGGAAAAUAGGAAGCAGGUGCUCGCUUG` the log2 enrichment was -1.46.
`AAGUCCUGUGCUACACAUCGUAUGUACCGAAUCGGGUGGGUUUUUUUGGGAAAGGGAAAGUAUUAUGUUACGCCGUUCGGAUCUGCACUU` has a log2 enrichment of -0.488.
`CUCAAGUCCUGUGCUACACAUCGUAUGUACCGAAUCGGAAAGGGAAAGGAAAGGAAAGUAUUAUGUUACGCCGUUCGGAUCUGCACUUCC` gave a log2 enrichment of -0.216.
The log2 enrichment of `ACCAUGCAGGUGGGCAUCUUUGGGAAGUGGUGCAAGGGGGGGAUAGGGAGGGGGGUAACACUUUGGGAACAGGUGGUCCCAGGUCGUUUC` is reported as 1.26.
`CAAGUCCUGUGCUACACAUCGUAUGUACCGAAUCGGGGAAAGGGAAAGGAAAGGGGAAAGUAUUAUGUUACGCCGUUCGGAUCUGCACUU` gave a log2 enrichment of -0.885.
`CAAGUCCUGUGCUACACAUCGUAUGUACCGAAUCGGAAAAAAAGGUUUGGUUUGGAAAGUAUUAUGUUACGCCGUUCGGAUCUGCACUUC` has a log2 enrichment of -2.43.

Set 3 — method: protein-binding microarray; molecule type: double-stranded DNA, one strand shown; sample: in vitro; concentration: 0.8 µM; notes: whole 60-bp probe, no competitor; direction: higher = stronger binding; shared flanks, not repeated: … GTCTTGATTCGCTTGACGCTGCTG
Target: Centromere-binding protein 1, full length, N-terminal tag (CBF1, Saccharomyces cerevisiae, UniProt P17106, residues 1-351)
Chain of UniProt P17106 (whole entry, looked up): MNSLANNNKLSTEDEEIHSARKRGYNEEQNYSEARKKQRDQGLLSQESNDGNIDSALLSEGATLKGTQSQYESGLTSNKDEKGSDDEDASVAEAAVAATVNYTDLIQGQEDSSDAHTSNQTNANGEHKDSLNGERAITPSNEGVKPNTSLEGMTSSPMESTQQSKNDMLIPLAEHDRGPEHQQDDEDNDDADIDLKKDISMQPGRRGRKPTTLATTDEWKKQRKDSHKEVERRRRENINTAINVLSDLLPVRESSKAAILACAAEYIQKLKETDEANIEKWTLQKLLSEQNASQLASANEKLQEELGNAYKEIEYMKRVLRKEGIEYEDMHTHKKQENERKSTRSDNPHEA
With `GAAAAAGCAAAAGTGTTGGTGATGAAGAAGAAATAG` the fluorescence intensity was 570 a.u.
The fluorescence intensity of `GAACACGGATTTCAGCACGGGTTTCAGCACGGATAG` is reported as 745 a.u.
With `CTATATACTTTCTAACTGATGATGAATATGAAATTC` the fluorescence intensity was 546 a.u.
`GAACGGATATTGAATCACATGGGATTTCAGATTTAG` has a fluorescence intensity of 1570 a.u.
`GAAAATACCCGGCATCACGCATTTATTATATGATAG` gave a fluorescence intensity of 629 a.u.
With `CTAATTACGTATTTTCTGATGTTGAGGAATCTGTTC` the fluorescence intensity was 562 a.u.
`TGTACGAAGCTATAGCTCGTGTTTATAGTAGTTAGG` gave a fluorescence intensity of 533 a.u.
For `CTAGTAGTGTATTATCACATGGTGTGTAAGAACTTC`, the fluorescence intensity was 1690 a.u.
The fluorescence intensity of `CTAGTTATCATAAATAAGGTGACCGGTTATATTTTC` is reported as 616 a.u.
`CTACAAATAAAACATCATCACAATGTCTAGATTTTC` has a fluorescence intensity of 510 a.u.
`GAAGGTGTTAGTATTCTCATCACGATTAACGAATAG` gave a fluorescence intensity of 649 a.u.
For `GAATGCAGTGCCTTTCACGTAATCTCAAGAGCCTAG`, the fluorescence intensity was 505 a.u.
For `GAAGGCCATAAACGCGACGTGCTACCATTTTCGTAG`, the fluorescence intensity was 613 a.u.
With `CTAGTAACTACCAATCTCGTGAGATTTTTCATATTC` the fluorescence intensity was 578 a.u.
For `GAAGTCTCTGCCTGGAGCGTGACATTTAGGACGTAG`, the fluorescence intensity was 794 a.u.
For `GAATCAAGGCATGGCCGCGTGATGGCATTGCACTAG`, the fluorescence intensity was 683 a.u.
`GAAGTTTGCTCATAATACAGTCACAGATGTGAGTAG` has a fluorescence intensity of 568 a.u.
The fluorescence intensity of `CTAAACCGTGAAGGTCACGGCATATATACTCTGTTC` is reported as 696 a.u.
`CTAAGCAGTTTCCATCAGCTATTTATGTTACGATTC` has a fluorescence intensity of 529 a.u.
For `GAATTATGCAAGCCTGACGTGGCCTGAGAATATTAG`, the fluorescence intensity was 542 a.u.
`CTATCAAGAGGATGTGTCACCATGGTAGCAAAGTTC` has a fluorescence intensity of 523 a.u.
For `GAACCAAAAGCTAATCACGAAATTGAGTGGATGTAG`, the fluorescence intensity was 576 a.u.
For `GAACATTTTGCTGGTGATGGCATTGCATCTGAGTAG`, the fluorescence intensity was 520 a.u.
`GAATTACCCGCTCGTGATACCTGACGACCATTATAG` has a fluorescence intensity of 1860 a.u.
With `GAAAGCCTGCAAGAGCACGAAAGATATGTTTTCTAG` the fluorescence intensity was 502 a.u.

Set 4 — method: universal PBM; molecule type: double-stranded DNA, one strand shown; sample: in vitro; concentration: not given; direction: higher = stronger binding
Target: Sal-like protein 4, full length isoform B (SALL4, Homo sapiens, UniProt Q9UJQ4-2, residues 1-616)
Notes: 8-mer, flanks averaged, mean of replicates
Construct (chain): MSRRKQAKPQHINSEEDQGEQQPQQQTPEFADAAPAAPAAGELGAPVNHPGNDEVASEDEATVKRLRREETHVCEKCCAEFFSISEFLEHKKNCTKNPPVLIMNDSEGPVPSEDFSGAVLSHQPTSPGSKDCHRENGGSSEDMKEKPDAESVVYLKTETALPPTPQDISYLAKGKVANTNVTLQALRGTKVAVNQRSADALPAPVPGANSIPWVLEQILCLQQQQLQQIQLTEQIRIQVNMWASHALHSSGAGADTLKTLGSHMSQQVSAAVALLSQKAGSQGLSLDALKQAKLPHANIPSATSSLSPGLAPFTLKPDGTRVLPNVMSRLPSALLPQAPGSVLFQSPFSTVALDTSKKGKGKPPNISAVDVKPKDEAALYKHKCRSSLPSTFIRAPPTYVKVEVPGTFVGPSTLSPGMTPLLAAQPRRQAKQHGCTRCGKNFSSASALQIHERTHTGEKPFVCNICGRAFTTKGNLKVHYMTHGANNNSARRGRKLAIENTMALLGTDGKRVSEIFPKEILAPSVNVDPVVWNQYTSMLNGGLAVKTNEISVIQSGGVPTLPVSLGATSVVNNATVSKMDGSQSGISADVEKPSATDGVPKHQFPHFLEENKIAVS
For `AATGGATG`, the E-score was 0.163.
`CTCACGTC` has an E-score of -0.105.
For `GGATTCGA`, the E-score was -0.127.
With `CCGCGGAA` the E-score was -0.197.
The E-score of `AGCGTGAC` is reported as -0.133.
With `ACTTCATA` the E-score was 0.291.
With `ACTGCGCC` the E-score was -0.326.
For `AATAGTCT`, the E-score was 0.188.
With `CCTAGGGA` the E-score was -0.0675.
The E-score of `GGAGGCCC` is reported as -0.348.
For `CTTTCCTA`, the E-score was 0.00885.
`AAGCTGCC` has an E-score of -0.188.
The E-score of `AATTGACG` is reported as 0.145.
`CCTCCTTA` has an E-score of -0.0238.
For `CGAGTACC`, the E-score was -0.0333.
For `CACACTAG`, the E-score was -0.00553.
For `AACTACCT`, the E-score was 0.0248.
The E-score of `AGCGCAAA` is reported as -0.0184.
For `ACGGTACA`, the E-score was -0.0599.
`TTCTCCAA` has an E-score of 0.0538.
`CCCTGAAG` gave an E-score of -0.278.

A few entries again (set 4):
With `CCGCGGAA` the E-score was -0.197.
The E-score of `AGCGTGAC` is reported as -0.133.
With `ACTTCATA` the E-score was 0.291.
With `ACTGCGCC` the E-score was -0.326.
